# Measured values pooled from the literature.
# Lines come from different studies, so protocols differ. Values joined by “and” are separate records of one study, mostly repeats; a detail may differ. ± marks the error that the study gave.
# Nuclear receptor subfamily 2 group C member 2 ligand-binding domain: Nuclear receptor subfamily 2 group C member 2, ligand-binding domain (Homo sapiens, UniProt P49116)
# UniProt P27361, sequence (whole entry, looked up): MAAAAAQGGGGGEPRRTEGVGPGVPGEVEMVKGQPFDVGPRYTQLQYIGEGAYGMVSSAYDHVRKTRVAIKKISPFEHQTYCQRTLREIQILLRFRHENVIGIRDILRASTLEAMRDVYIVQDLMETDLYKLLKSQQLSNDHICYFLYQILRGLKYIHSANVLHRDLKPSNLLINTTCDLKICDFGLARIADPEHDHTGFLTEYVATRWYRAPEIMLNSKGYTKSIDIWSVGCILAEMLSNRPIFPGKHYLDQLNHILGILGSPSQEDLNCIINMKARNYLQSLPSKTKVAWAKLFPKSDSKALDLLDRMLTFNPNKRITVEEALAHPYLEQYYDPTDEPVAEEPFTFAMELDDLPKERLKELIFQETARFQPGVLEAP
# UniProt P49116, sequence (whole entry, looked up): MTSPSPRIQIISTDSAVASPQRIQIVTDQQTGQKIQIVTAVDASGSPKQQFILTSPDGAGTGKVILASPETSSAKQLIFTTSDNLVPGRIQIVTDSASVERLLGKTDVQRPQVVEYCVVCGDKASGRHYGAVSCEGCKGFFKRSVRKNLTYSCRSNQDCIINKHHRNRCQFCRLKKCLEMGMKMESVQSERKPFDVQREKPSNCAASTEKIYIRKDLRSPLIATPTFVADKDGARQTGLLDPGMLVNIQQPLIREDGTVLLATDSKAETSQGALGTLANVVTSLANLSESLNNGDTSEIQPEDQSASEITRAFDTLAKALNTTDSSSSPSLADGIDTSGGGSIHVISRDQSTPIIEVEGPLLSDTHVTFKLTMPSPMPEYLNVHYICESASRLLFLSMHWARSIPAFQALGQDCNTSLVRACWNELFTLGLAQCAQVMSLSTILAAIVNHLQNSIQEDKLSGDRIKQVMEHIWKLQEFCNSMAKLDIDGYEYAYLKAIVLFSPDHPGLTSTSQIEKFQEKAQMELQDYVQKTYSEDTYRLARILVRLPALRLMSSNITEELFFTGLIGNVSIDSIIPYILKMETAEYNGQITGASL
# UniProt O94921, sequence (whole entry, looked up): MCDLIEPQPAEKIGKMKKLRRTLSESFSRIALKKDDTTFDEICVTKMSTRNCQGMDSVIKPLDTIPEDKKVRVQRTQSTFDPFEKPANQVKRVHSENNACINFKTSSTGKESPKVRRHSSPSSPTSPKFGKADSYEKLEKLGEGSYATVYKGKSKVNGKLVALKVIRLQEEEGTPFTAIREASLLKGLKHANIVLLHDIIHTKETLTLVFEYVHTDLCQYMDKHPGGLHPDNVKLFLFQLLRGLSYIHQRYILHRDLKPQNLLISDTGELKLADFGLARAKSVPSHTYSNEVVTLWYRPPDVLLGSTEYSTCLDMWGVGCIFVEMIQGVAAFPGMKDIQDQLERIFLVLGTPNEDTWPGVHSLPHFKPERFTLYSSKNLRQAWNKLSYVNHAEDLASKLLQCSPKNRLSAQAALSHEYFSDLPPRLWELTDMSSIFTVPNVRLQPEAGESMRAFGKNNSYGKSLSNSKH
# UniProt P04746, sequence (whole entry, looked up): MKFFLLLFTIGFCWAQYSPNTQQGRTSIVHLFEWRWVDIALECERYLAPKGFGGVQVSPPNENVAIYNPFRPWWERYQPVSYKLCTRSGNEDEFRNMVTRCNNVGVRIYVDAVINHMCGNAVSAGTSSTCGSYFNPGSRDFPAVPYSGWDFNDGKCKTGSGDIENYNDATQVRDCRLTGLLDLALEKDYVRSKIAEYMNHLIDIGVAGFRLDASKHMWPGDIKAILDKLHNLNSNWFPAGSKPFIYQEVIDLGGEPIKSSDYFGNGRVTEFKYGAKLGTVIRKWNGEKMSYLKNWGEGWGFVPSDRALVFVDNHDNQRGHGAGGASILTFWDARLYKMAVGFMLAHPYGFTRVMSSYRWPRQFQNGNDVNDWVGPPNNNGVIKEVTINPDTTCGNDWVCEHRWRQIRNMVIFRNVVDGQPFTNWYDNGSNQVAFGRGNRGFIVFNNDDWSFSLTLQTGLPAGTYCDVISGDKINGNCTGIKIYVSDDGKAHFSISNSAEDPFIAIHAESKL
# UniProt Q8NEZ5, sequence (whole entry, looked up): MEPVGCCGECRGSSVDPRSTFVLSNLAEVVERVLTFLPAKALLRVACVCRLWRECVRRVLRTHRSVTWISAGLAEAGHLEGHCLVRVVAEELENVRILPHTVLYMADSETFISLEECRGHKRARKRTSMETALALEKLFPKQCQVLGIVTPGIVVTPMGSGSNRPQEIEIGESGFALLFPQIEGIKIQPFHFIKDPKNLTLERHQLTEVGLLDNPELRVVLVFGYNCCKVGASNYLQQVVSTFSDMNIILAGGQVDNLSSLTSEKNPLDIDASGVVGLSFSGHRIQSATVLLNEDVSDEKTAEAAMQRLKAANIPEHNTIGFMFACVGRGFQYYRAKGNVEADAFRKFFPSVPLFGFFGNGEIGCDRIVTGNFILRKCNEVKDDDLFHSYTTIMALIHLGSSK
# UniProt O95696, sequence (whole entry, unmodified, looked up): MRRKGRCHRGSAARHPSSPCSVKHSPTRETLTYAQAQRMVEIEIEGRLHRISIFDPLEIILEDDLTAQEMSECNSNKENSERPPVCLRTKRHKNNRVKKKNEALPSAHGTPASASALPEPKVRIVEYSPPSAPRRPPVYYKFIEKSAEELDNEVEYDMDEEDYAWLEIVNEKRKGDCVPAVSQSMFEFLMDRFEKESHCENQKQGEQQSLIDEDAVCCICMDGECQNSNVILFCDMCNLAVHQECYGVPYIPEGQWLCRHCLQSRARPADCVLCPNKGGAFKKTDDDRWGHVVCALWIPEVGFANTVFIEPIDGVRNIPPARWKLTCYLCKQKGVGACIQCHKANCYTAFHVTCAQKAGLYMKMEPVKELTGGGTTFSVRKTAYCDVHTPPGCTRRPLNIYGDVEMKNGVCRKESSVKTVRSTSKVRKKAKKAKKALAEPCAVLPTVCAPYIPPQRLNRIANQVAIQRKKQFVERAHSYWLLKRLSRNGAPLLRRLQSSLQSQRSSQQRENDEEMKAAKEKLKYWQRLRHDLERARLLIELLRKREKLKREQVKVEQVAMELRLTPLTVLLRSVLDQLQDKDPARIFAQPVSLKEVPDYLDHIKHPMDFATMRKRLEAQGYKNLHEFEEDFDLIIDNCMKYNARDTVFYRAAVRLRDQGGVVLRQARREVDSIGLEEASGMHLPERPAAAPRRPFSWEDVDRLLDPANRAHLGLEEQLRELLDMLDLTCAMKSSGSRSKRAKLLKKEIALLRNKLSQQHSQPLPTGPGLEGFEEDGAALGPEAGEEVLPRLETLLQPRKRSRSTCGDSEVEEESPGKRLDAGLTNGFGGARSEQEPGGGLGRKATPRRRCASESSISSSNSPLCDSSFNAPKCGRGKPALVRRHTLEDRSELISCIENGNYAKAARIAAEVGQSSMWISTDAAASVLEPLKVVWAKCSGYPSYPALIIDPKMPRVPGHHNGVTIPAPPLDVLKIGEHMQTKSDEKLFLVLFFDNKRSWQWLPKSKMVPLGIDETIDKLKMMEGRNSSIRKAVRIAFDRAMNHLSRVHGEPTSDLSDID
# UniProt Q9HBX9, sequence (whole entry, looked up): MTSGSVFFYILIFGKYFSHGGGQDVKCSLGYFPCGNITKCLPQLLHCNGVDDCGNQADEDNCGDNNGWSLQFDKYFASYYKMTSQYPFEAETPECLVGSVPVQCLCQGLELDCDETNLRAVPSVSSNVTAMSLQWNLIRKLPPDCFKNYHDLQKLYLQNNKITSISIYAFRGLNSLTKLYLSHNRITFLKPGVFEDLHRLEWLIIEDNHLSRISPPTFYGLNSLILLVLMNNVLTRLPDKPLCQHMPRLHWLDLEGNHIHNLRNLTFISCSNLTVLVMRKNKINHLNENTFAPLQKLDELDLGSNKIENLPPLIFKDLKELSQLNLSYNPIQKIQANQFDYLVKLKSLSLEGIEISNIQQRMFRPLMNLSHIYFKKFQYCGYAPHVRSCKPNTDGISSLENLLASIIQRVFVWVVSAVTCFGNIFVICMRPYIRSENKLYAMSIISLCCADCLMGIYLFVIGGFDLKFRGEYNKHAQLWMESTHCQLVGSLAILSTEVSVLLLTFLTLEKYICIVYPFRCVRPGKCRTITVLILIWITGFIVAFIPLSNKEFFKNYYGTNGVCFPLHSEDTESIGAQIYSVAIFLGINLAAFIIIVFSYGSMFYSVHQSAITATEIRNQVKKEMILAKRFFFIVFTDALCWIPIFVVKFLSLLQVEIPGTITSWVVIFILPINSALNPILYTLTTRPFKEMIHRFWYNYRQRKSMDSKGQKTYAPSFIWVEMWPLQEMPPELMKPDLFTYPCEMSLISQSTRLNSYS
# UniProt Q13705, sequence (whole entry, looked up): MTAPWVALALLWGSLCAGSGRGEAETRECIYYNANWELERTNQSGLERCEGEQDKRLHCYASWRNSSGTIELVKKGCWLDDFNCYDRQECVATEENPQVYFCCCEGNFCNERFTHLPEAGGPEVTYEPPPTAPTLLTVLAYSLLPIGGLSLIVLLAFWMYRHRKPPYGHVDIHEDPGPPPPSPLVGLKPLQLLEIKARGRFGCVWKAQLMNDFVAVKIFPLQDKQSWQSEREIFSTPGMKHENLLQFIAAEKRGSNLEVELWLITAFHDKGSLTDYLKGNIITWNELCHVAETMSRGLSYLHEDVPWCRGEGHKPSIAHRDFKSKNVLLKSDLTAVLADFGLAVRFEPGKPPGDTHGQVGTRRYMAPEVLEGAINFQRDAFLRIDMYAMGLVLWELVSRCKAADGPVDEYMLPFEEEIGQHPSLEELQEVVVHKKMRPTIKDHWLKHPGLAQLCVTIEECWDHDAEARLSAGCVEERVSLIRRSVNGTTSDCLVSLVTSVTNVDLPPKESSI
# UniProt Q29495, sequence (whole entry, looked up): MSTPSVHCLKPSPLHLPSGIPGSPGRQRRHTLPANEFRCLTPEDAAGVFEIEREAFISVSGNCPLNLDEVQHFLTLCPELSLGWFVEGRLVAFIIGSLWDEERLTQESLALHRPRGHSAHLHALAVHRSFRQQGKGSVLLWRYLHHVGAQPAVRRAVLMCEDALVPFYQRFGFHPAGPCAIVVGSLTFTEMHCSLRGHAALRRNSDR
SMILES,target or system,test,system,setting,how to read,measurement,result
CC(=C/C(=O)O)/C=C/C=C(\C)C1C=C2C(C)(C)CCCC2(C)O1 (stereo not drawn),"Rhodopsin (RHO, Homo sapiens, UniProt P08100, P23H)","ER retention, immunostaining co-localization, refers to: opsin with calnexin",COS-7 transfected P23H,5.00 µM,,Pearson correlation coefficient,0.68
COC(=O)c1cn(C)c2ccc(-c3cccnc3)cc12,COS-7,,,"30 µM, 24 h, 0.1% DMSO, unit not given",baseline: vehicle control,necrotic cells,0.76 ± 0.23
CCCCC[S+]([O-])c1n[nH]c(N)n1 (stereo not drawn),"F-box only protein 22, with SKP1 (Homo sapiens, UniProt Q8NEZ5)","binding, affinity selection mass spectrometry",,,baseline: other proteins in batch,log fold enrichment,-0.119
C[C@H](N)C(=O)N[C@@H](CCCNC(=N)N)C(=O)N[C@H](C(=O)N[C@@H](CCCCN)C(=O)N[C@@H](CCC(N)=O)C(=O)N[C@H](C(=O)N[C@@H](C)C(=O)N[C@@H](CCCNC(=N)N)C(=O)N[C@@H](CCCCN)C(=O)N[C@@H](CO)C(=O)O)[C@@H](C)O)[C@@H](C)O,"Transcriptional regulator ATRX (ATRX, Homo sapiens, UniProt P46100, F284Y/K251R)",isothermal titration calorimetry,,"concentration not given, pH 7.5, 25.0 °C",,binding entropy,8.44 cal/mol/K
N#CC[C@H](C1CCCC1)n1cc(-c2ncnc3[nH]ccc23)cn1,Nuclear receptor subfamily 2 group C member 2 ligand-binding domain,SPR imaging,,600 nM,,koff,1.57e-06 s⁻¹
C1=C/COCc2cc(ccc2OCCN2CCCC2)Nc2nccc(n2)-c2cccc(c2)COC/1,"ACVR2B (Homo sapiens, UniProt Q13705)",,,concentration not given,,percent of control,63%
COc1c(O)c(C)cc2c1C(=O)c1c(cc(O)c(O)c1O)C2=O,HepaRG co-cultured with HK-2,MTT,,"266.67 µM, 48 h",baseline: untreated control,cell viability,44 ± 9.9%
CC(=O)NCCCC[C@H](NC(=O)CNC(=O)CNC(=O)[C@H](CCCCNC(C)=O)NC(=O)CNC(=O)[C@H](CCCNC(=N)N)NC(=O)CNC(=O)[C@@H](N)CO)C(=O)NCC(=O)N[C@@H](CC(C)C)C(=O)NCC(N)=O,"BRD1 (Homo sapiens, UniProt O95696, R585F)",ITC,,"concentration not given, 15 °C, together with: peptide 2 mM",,binding stoichiometry,1.2 ± 0.3
O=C1OC(c2ccccc2)=N/C1=C\c1cccc(O)c1,"Pancreatic alpha-amylase (Homo sapiens, UniProt P04746)","inhibitor, Lineweaver-Burk",,"300 ppm, together with: starch substrate",,Vmax,0.059 mg/mL/min
CC(C)C[C@H](NC(=O)C[C@H](O)[C@H](CC(C)C)NC(=O)[C@H](Cc1c[nH]cn1)NC(=O)CNC(=O)[C@@H](NC(=O)[C@H](C)NC(=O)[C@H](Cc1c[nH]c2ccccc12)NC(=O)[C@H](CCC(N)=O)NC(=O)[C@@H](Cc1ccccc1)NC(=O)COCCOCCNC(=O)CCC(C(=O)O)N1CCN(CC(=O)O)CCN(CC(=O)O)CCN(CC(=O)O)CC1)C(C)C)C(N)=O (stereo partly drawn) [lutetium-177 labelled],,,"BALB/c nu/nu mice, lung","intravenous, 500 pmol, 1 h, together with: PA 300 µg",,tissue uptake,0.9 ± 0.8 %ID/g
CCCC[C@H]1CN(c2cccc(OC(F)(F)F)c2)C(=O)CN1Cc1cncn1Cc1ccc(Br)cc1,"Protein farnesyltransferase (Cryptococcus neoformans, UniProt J9VSJ6+T2BPA1)",uncompetitive inhibitor,,"L state, no phosphate",,Ki,750 nM
C[S+](CC[C@H](N)C(=O)[O-])C[C@H]1O[C@@H](n2cnc3c(N)ncnc32)[C@H](O)[C@@H]1O (stereo partly drawn),"KMT2C (Homo sapiens, UniProt Q8NEZ4)","substrate, enzyme-coupled methylation",,together with: H3 peptide 25 µM,,apparent Km,4.3 ± 0.6 µM
O=C1/C(=C2/C(=O)N(Cc3ccc(F)cc3)c3ccccc32)SC(=S)N1CCCCCCO,"Serotonin N-acetyltransferase (Ovis aries, UniProt Q29495)","enzyme activity, inhibitor",,"concentration not given, together with: acetyl-CoA",,activity class,inactive
c1coc(-c2n[nH]cc2-c2ccnc3ccccc23)c1,"Serine/threonine-protein kinase GIN4 (GIN4, Candida albicans, UniProt Q59W62)","kinase binding, MIB/MS competition",Candida albicans lysate,1 µM,"baseline: DMSO, negative = stronger binding",log2 fold change,-0.32
CC(C)n1c(/C=C/C(O)CC(O)CC(=O)O)c(-c2ccc(F)cc2)c2ccccc21 (stereo not drawn),COS-7,,,"10 µM, 24 h, 0.1% DMSO, unit not given",baseline: vehicle control,necrotic cells,0.76 ± 0.16
Nc1[nH]nc2nnc(-c3c(-c4ccccc4)nn4ccccc34)cc12,"MAPK3 (Homo sapiens, UniProt P27361)",ADP-Glo,,"500 pM, together with: MBP substrate",,kinase activity,111% and 64% and 78.4%
CC[C@H](C)[C@@H]1NC(=O)[C@H](C)NC(=O)[C@H]([C@@H](C)CC)NC(=O)[C@H](CCC(N)=O)NC(=O)[C@H](C)NC(=O)[C@H](CCCNC(=N)N)NC(=O)[C@H](C(C)C)NC(=O)[C@H](CC(C)C)NC(=O)[C@H](CCC(=O)O)NC(=O)[C@H](CCCNC(=N)N)NC(=O)CNC(=O)[C@@H](NC(=O)[C@H](CC(C)C)NC(=O)[C@H](CCCCN)NC(=O)[C@@H](NC(=O)[C@@H](NC(=O)[C@H](CCC(=O)O)NC(=O)[C@H](CCC(=O)O)NC(=O)[C@H](CCSC)NC(=O)[C@H](Cc2c[nH]c3ccccc23)NC(=O)[C@H](CO)NC(=O)[C@@H](N)CC(=O)O)C(C)C)[C@@H](C)CC)CSSC[C@@H]2NC(=O)[C@@H](NC(=O)[C@H](CCCCN)NC(=O)[C@H](CC(N)=O)NC(=O)[C@H](C)NC(=O)[C@H](CC(C)C)NC(=O)[C@H](C)NC(=O)[C@H](CO)NC(=O)[C@H](Cc3ccc(O)cc3)NC(=O)[C@H](CC(C)C)NC(=O)[C@H](CCC(N)=O)NC(=O)c3ccc(-c4c5ccc(=[N+](C)C)cc-5oc5cc(N(C)C)ccc45)c(C(=O)[O-])c3)CSSC[C@H](NC(=O)CNC(=O)[C@H](C(C)C)NC(=O)[C@H](Cc3c[nH]cn3)NC2=O)C(=O)N[C@@H]([C@@H](C)O)C(=O)N[C@@H](CCCCN)C(=O)N[C@@H](CCCNC(=N)N)C(=O)N[C@@H](CO)C(=O)N[C@@H](CC(C)C)C(=O)N[C@@H](C)C(=O)N[C@@H](CCCNC(=N)N)C(=O)N[C@@H](Cc2ccccc2)C(=O)N[C@H](C(=O)O)CSSC[C@@H](C(=O)NCC(=O)N[C@@H](CCSC)C(=O)N[C@@H](CO)C(=O)N[C@H](C(=O)N[C@@H](Cc2c[nH]c3ccccc23)C(=O)N[C@@H](CO)C(=O)O)[C@@H](C)O)NC1=O,"Relaxin receptor 1 (RXFP1, Homo sapiens, UniProt Q9HBX9)","binding, NanoBRET",,"concentration not given, together with: relaxin 10 nM",,fast dissociation fraction,22.2%
COc1c(O)c(C)cc2c1C(=O)c1c(ccc(O)c1O)C2=O,HepaRG co-cultured with HK-2,MTT,,"66.67 µM, 48 h",baseline: untreated control,cell viability,39.8 ± 3.29%
CN(C)CCC(c1ccc(Br)cc1)c1ccccn1.O=C(O)/C=C\C(=O)O (stereo not drawn),Nuclear receptor subfamily 2 group C member 2 ligand-binding domain,SPR imaging,,600 nM,,koff,7.16e-07 s⁻¹
C=CC(=O)N1CCC(COCC(=O)N2CCN(c3nc(-c4cnc(N)nc4C(F)F)nc(N4CCOC[C@@H]4C)n3)CC2)CC1,"CDK14 (Homo sapiens, UniProt O94921)",KINOMEscan,,1 µM,baseline: DMSO control,remaining binding,92%
O=c1nc(SCc2ccc(C(F)(F)F)cc2)nc(SCc2csc3ccc(Cl)cc23)[nH]1,"TOP2A (Homo sapiens, UniProt P11388)",DNA relaxation,,"7.8 µM, replicate 2",,relaxed DNA,35.4%

# Repeated from above:
SMILES,target or system,test,system,setting,how to read,measurement,result
COC(=O)c1cn(C)c2ccc(-c3cccnc3)cc12,COS-7,,,"30 µM, 24 h, 0.1% DMSO, unit not given",baseline: vehicle control,necrotic cells,0.76 ± 0.23
CCCCC[S+]([O-])c1n[nH]c(N)n1 (stereo not drawn),"F-box only protein 22, with SKP1 (Homo sapiens, UniProt Q8NEZ5)","binding, affinity selection mass spectrometry",,,baseline: other proteins in batch,log fold enrichment,-0.119
